Measurements collected from several papers.
Every numbered part comes from another study and shows a few of its results, in no order. Positions count from the first letter of the parent shown.

Study 1
Target: Hepatocyte nuclear factor 3-alpha (Foxa1, Mus musculus, UniProt P35582, residues 1-468, full length assumed)
Chain of UniProt P35582 (whole entry, looked up): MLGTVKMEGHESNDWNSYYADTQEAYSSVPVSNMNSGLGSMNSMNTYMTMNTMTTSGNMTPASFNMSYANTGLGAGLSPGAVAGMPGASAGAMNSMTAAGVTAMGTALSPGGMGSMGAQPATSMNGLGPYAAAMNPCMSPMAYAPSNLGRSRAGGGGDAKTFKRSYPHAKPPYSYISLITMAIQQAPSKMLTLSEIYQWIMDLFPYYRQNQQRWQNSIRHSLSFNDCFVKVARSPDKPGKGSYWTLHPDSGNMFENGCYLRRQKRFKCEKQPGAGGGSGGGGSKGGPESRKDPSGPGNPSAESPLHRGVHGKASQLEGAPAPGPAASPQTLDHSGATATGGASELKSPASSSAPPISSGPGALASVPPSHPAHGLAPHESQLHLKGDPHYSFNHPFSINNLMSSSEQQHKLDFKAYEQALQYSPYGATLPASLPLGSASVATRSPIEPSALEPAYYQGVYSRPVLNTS
Technique: EMSA with sequencing
Form: double-stranded DNA, one strand shown
Medium: in vitro
Tested at: 10 and 20 nM
Setting: whole designed probe, mean of two concentrations, ends assumed
Reference: negative control set to 0
Direction: higher = stronger binding
All sequences stand within: GTGAGCGGTGCCCATTGATGGGGAAC … TTTCACTGGGATCGTGGGGAC
| Strand | normalised bound fraction [ratio] |
| --- | --- |
| ATTACCTTGTTGAATCTTTCTACAATGTATAAATATATTAAAACATCACATTGTATTCCACTAATACACACAATTATTAGTTGTTGATTAAAAGTAAATAAAGAAAAAGGAGAACAATGTTGAAGGACTATAGTAATCAAAACAGTGTGATACTGGCATAAACATAGACATGTAAATCAATGGCATACAATCA | 0.48 |
| TCGGCCAGCCTGGCTTCTGCGCCCCGCCAGGAGGTCGCGGAGCGGAGCGCGGCCAGGAAGTGATGACTCATTCACAGCTCCCCCCACGCTGTTTGTTTATTCATGTCACATTCTCTCCACACACTGGCTCTTCTTTCTTTCGGGAGGAGGGGAGAAAGGAGCGGGAGGGCGGGCGGGCAGGGGAGAGGCAGGC | 0.342 |
| CCCTTTCAGCTGACGCCGCGCCTGACGGGCCAGCCCAGACGCCGGCCTGCCCGCTGCTAATTACGAGGGCATTGTTGCTTGAGTGCTTTCTGTGTTTACATAGTTGGACAAGTCTCCCTTAATTGTCCAAAAAAAAAAAAAAAAAGGAAAAAGAAAAAGAAAATTACTAATATTTCAGAAAAAGGGCAGGCTG | 0.425 |
| CCACAGCTTCAATCATTTTCAGAGCCTGAGTTAGTCTACAAATGGGTTGAGAACACGTTTTTTTTTCACTCAGGCGAAAAGTCATTTCCAAAGTAAACAAAGACTTTAAACTGGGAATTAAGGGCAAGATCAGGGATGAGGAAGTTAATACCATATTGAAAAGTTCTAAGGAAGAAGGCCATGTAACGAGATA | 0.459 |
| ATCTTCCCCCTCTTCCTTGCCCCACCAGCTCACCTTCCCGGGTCAAAGTAAACAAGTGTTTACTTTGAAGCCGGCATTCGTTAACCCTCTTCACGCGCATACTGCTGTTTACTTTGGATGAATCATGGTCCTTTGGCGACGCCAGGCTCCGGGAGAGCAAAGCACCGTGTCAGGGCCATGATCCGGGGTGGCC | 0.516 |
| CGGCAGTGGGCGTGGCTAGGTGGGGCGGGACGGAGCCGCGGCGGAGGATGGGGCGGGGTTTCATGGGGTAAGCGGGGCCGAAATAGAGCCTGTAAATTACTCTGGTTCACAGGCAGCATGTCTTTGGTTTTCTGACTACTTCTTGTCCTGTGAAGCAGCGTTGCTGCCTGCCTATTTTAAGTTAATGTTTCAA | -0.0755 |
| ATCTTCCCCCTCTTCCTTGCCCCACCAGCTCACCTACGGGGGTTATTTGCACAAAGGAAAATAAATAAAGCCGGCATTCGTTAACGCAGTTCTGGCGCAAACTGCTGTTTGCTCTGCATCTAACATGGTCCTTACGCGACGCCAGGCTCCGGGAGAGCAAAGCACCGTGTCAGGCGCATGATCCGGGGTGGCC | 0.393 |
| ATCTTCCCCCTCTTCCTTGCCCCACCAGCTCACCTTCCCGGGTTGTTTACTTTGAGCAAAGTAAACAAAGCCGGCATTCGTTAACCCTCTTCACGCGCATACTGCCAGAGCAAACAGATCTAACATGGTCCTTTGGCGACGCCAGGCTCCGGGAGAGCAAAGCACCGTGTCAGGGCCATGATCCGGGGTGGCC | 0.532 |

Study 2
Target: Probable WRKY transcription factor 50, DNA-binding domain (WRKY50, Arabidopsis thaliana, UniProt Q8VWQ5, residues 99-173)
Chain of UniProt Q8VWQ5 (99-173, looked up): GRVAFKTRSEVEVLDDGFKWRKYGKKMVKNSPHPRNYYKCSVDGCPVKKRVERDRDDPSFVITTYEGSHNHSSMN
Technique: DNA-protein interaction ELISA
Form: double-stranded DNA, one strand shown
Medium: in vitro, bacterial lysate
Tested at: not given
Setting: whole dsDNA probe, crude lysate protein
Reference: highest signal in screen
Direction: higher = stronger binding
| Strand | relative absorbance |
| --- | --- |
| AAAAAAATGATTTGCAGATCTCCGAGAAAA | 32.7 % of maximum |
| AAAAAACGGAAGATCGTGACTGCTAGAAAA | 18.7 % of maximum |
| AAAAAAATGATTGCCAATGCTCGCAAAAAA | 25.1 % of maximum |
| AAAAAAACACCTGTATAGCATGGACGAAAA | 30 % of maximum |
| AAAAAATCTTACCCCTCCGCTTCTATAAAA | 49 % of maximum |
| AAAAAATTACGTTTGTATTTGTAAAA | 17.6 % of maximum |
| AAAAAAGTGTTTGTGCTTCTCTCTGTAAAA | 21.8 % of maximum |
| AAAAAACATGTCGCACCTGTACTAACAAAA | 39.4 % of maximum |

Study 3
Target: CCNF, cyclin fold, Cln2 fusion (human)
Technique: yeast growth competition, sequencing
Medium: yeast
Setting: strong parent motif
Reference: not given
Direction: higher = stronger binding
Starting sequence: viral docking peptide; KKAKRRLFTISDS
| Change | normalised enrichment score |
| --- | --- |
| K1A | 5.49 |
| D12A | 1.8 |
| R5K F8L | 0.165 |
| S13A | 4.41 |
| T9A | 4.85 |
| I10A | 5.43 |
| R5A | 2.52 |

Study 4
Target: UDP-N-acetylglucosamine--peptide N-acetylglucosaminyltransferase 110 kDa subunit (OGT, Homo sapiens, UniProt O15294)
Chain of UniProt O15294 (whole entry, looked up): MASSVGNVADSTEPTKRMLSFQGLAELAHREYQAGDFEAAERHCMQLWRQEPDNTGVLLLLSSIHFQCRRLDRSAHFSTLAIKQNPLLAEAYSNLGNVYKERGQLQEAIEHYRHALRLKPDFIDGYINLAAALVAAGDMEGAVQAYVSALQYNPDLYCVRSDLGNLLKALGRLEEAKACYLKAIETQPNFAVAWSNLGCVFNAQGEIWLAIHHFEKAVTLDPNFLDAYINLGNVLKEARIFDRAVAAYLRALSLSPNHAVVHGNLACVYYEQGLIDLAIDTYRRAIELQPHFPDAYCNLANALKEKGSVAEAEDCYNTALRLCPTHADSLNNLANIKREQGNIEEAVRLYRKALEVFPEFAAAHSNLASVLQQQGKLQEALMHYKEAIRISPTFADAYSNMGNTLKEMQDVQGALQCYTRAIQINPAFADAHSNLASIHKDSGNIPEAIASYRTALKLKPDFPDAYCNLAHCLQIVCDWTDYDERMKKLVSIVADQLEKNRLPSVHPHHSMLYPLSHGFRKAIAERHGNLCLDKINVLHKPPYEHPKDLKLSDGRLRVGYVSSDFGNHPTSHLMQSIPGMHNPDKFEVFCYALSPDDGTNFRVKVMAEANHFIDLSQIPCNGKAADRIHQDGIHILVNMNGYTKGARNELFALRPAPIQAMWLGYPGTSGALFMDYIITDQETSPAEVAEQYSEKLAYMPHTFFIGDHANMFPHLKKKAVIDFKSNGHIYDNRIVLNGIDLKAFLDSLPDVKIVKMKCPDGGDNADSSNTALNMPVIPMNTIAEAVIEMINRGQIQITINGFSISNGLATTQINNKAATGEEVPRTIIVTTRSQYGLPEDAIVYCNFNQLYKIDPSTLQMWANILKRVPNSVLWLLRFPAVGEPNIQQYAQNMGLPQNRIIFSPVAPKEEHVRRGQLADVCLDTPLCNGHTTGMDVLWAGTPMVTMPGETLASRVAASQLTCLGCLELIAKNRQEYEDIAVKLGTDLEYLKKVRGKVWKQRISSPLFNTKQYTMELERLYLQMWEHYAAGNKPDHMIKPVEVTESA
Observed: binding
Technique: phage display NGS
Form: peptide
Setting: panning round 2
Reference: input library
| Sequence | minimum log2 enrichment ratio |
| --- | --- |
| FPRWHQLPWPHHVYS | 3.39 |
| QNQPRYFPAYQIVAQ | 2.64 |
| YFEPKYEISFKYPHD | 3.41 |

Repeated from above (study 3):
| Change | normalised enrichment score |
| --- | --- |
| K1A | 5.49 |
| D12A | 1.8 |
| R5K F8L | 0.165 |
